Published values pooled from the literature.
Each line is one published result; not all experiments were run side by side. Several values in a cell are separate wells, animals, samples, runs or records. ± marks the error that the study gave.
Cell line: HepG2

Compound | assay | test system | setting | how to read | measurement | result
COc1c(C)c2c(c(O)c1C/C=C(\C)CCC(=O)O)C(=O)OC2 | cell proliferation | liver cancer | – | – | IC50 | 0.513 µM
[131I-].[Na+] | – | – | 16000 kBq/mL, 24 h | – | viability | 78.5 ± 9.9%
NC(=O)c1nc(F)c[nH]c1=O | measured: succinate dehydrogenase subunit A | – | 120 h | – | IC50 | > 400 µM
CC(C)=CCC[C@](C)(O)[C@H]1CC[C@]2(C)[C@@H]1[C@H](O)C[C@@H]1[C@@]3(C)CC[C@H](O)C(C)(C)[C@@H]3[C@@H](O[C@@H]3O[C@H](CO)[C@@H](O)[C@H](O)[C@H]3O)C[C@]12C | cell viability, CCK-8 | – | 40 µM | higher = more viable cells | optical density | 0.587 a.u. and 0.529 a.u. and 0.481 a.u. and 0.527 a.u. and 0.522 a.u. and 0.602 a.u.
CC(=O)c1ccc(C(O)C(C)C)cc1 (racemic) | – | – | 250 µM, 48 h | – | cells killed | 36%
O=c1ccn([C@@H]2O[C@H](CO)[C@@H](O)[C@H]2O)c(=S)[nH]1 | cell growth | – | 120 h | – | IC50 | > 50 µM
COc1ccc(-n2nc(C(C)=O)s/c2=N\N=C(/C)c2ccc(NC(C)=O)cc2)cc1 | – | – | 0.078 µM | – | toxicity | 9.04%
NC(=O)c1ncn([C@@H]2O[C@H](CO)[C@@H](O)[C@H]2O)n1 | cell growth | – | 120 h | – | IC50 | > 400 µM
COc1ccc(-c2cc(C(F)(F)F)c3c(N)c(C(=O)N4CCCCC4)sc3n2)cc1 | cell growth | – | concentration not given, 72 h | – | IC50 | not toxic
CC1=C(O)C(=O)C=C2C1=CC=C1[C@@]2(C)CC[C@@]2(C)[C@@H]3C[C@](C)(C(=O)O)CC[C@]3(C)CC[C@]12C | cell viability, CCK-8 | – | 3 µM | higher = more viable cells | optical density | 0.493 a.u. and 0.537 a.u. and 0.45 a.u. and 0.488 a.u. and 0.506 a.u. and 0.421 a.u.
O=C(N[C@H](CO)[C@H](O)c1ccc([N+](=O)[O-])cc1)C(Cl)Cl | measured: succinate dehydrogenase subunit A | – | 120 h | – | IC50 | > 100 µM
NCCOCC(=O)N1CCCC(C(=O)NCc2nc(-c3ccc(-c4ccc(F)cc4)cc3)cs2)C1 (stereo not drawn) | cytotoxicity | – | – | – | EC50 | ~20 µM
